Measured values collected from several papers.
Each line is one published result; not all experiments were run side by side. Numbers after ± are the reported error.
Action: substrate
mtlD E292A: mtlD (Pseudomonas fluorescens, UniProt O08355, E292A)

N[C@@H](Cc1ccc(O)c(I)c1)C(=O)O
Km (Iodotyrosine deiodinase (Haliscomenobacter hydrossis, UniProt F4KU78); pH 7.4): 49 ± 10 µM

O=C(O)C[C@H](O)C(=O)O
Km (Probable malate:quinone oxidoreductase 1 (mqo1, Staphylococcus aureus, UniProt Q5HDJ0); NBT reduction; cardiolipin/PE vesicles, with: 1.4 mM menaquinone): 180 µM

O=[N+]([O-])c1ccc(Cl)c([N+](=O)[O-])c1
Km (Prostaglandin D synthase (Clonorchis sinensis, UniProt G7YGL2)): 544 µM

NC(=O)c1ccc[n+]([C@@H]2O[C@H](COP(=O)(O)OP(=O)(O)OC[C@H]3O[C@@H](n4cnc5c(N)ncnc54)[C@H](O)[C@@H]3O)[C@@H](O)[C@H]2O)c1
Km (chimeric galactose dehydrogenase/LDH (Pseudomonas fluorescens/Geobacillus stearothermophilus); spectrophotometry; pH 8.5, room temperature, fusion site in galDH, with: galactose 16.6 mM): 130 µM

CC(=O)SCCNC(=O)CCNC(=O)[C@H](O)C(C)(C)COP(=O)(O)OP(=O)(O)OC[C@H]1O[C@@H](n2cnc3c(N)ncnc32)[C@H](O)[C@@H]1OP(=O)(O)O
Km (cysE, with CysK (Escherichia coli, UniProt P0A9D4); with: CysK fivefold molar excess, L-Ser 20 mM): 800 ± 200 µM

Oc1ccccc1
Km (horseradish peroxidase): 1450 µM

OCCSSCCO
Km (Glutaredoxin 1 (Alkaliphilus oremlandii, UniProt A8MIN3)): 1500 ± 400 µM

O=C[C@H](O)COP(=O)(O)O
Km (dxs (Escherichia coli, UniProt P77488, H299A)): 3.3 µM

NC(=O)c1ccc[n+]([C@@H]2O[C@H](COP(=O)(O)OP(=O)(O)OC[C@H]3O[C@@H](n4cnc5c(N)ncnc54)[C@H](O)[C@@H]3O)[C@@H](O)[C@H]2O)c1
Km (mtlD E292A): 71 ± 5 µM

PLARTLSVAGLPGKK
Km (Calcium-dependent protein kinase 10 (CPK10, Arabidopsis thaliana, UniProt Q9M9V8); peptide; 12 min, room temperature, with: ATP 50 µM): 238 µM

CCCCC/C=C\C/C=C\C/C=C\C/C=C\CCCC(=O)NCCO
Km (Faah (Rattus norvegicus, UniProt P97612); Sprague-Dawley rats, control, rat hippocampus membranes): 0.53 ± 0.09 µM

GGNWTT
Km (UDP-glucose:protein N-beta-glucosyltransferase (Actinobacillus pleuropneumoniae serotype 5b, UniProt A3N2T3, D215R/Q469A); peptide; 15 min, pH 8.0, 37 °C, D215R mutant, with: UDP-Glc 100 mM): 8450 ± 990 µM

OCC1(O)OC[C@@H](O)[C@@H](O)[C@@H]1O (stereo partly shown)
Km (mtlD E292A): 130 ± 10 µM

Excerpt of the above:
O=C[C@H](O)COP(=O)(O)O
Km (dxs (Escherichia coli, UniProt P77488, H299A)): 3.3 µM

NC(=O)c1ccc[n+]([C@@H]2O[C@H](COP(=O)(O)OP(=O)(O)OC[C@H]3O[C@@H](n4cnc5c(N)ncnc54)[C@H](O)[C@@H]3O)[C@@H](O)[C@H]2O)c1
Km (mtlD E292A): 71 ± 5 µM
